# Results collected from several papers.
# Every numbered part comes from another study and shows a few of its results, in no order. Changes are numbered by the printed parent chain.

# Block 1 — method: RNA Bind-n-Seq; form: RNA; medium: in vitro; tested at: not given; baseline: input RNA pool; direction: higher = stronger binding
# Target: RING finger protein unkempt homolog, zinc fingers 1-6, GST-SBP tag (UNK, Homo sapiens, UniProt Q9C0B0, residues 30-357)
# Sequence of UniProt Q9C0B0 (30-357, looked up): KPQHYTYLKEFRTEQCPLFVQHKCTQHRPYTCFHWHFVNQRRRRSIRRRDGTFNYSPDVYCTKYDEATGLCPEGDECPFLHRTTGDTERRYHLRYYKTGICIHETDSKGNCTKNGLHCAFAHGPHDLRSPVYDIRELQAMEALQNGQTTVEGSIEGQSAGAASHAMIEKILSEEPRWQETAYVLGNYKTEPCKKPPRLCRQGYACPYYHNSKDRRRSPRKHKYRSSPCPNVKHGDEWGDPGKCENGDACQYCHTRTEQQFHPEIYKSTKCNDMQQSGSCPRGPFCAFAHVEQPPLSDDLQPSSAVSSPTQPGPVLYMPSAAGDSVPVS
# Notes: RNA with constant flanks, human and mouse sites, ends assumed
# Shared flanks, not repeated: GGGAGUUCUACAGUCCGACGAUC … CAACAGAGGAUUGAGCAUCA
Strand,bound/input enrichment
CAGGCUUACGCUCCAGAAGAGGCAGCCCAAGAGGAGGAAUCAGUUCUCUGGACGAUAUUGAUUAGCAUUUUGAAACUGGUGCUUGAAAUUCUCUUCUGAUCCCUUGAAUAUGCUGGAGCA,10.6 ratio
UAAGUGAUUUUUUGUUCAUUGUUCCAUGUAAUAUUUUAUACAGAUUUUGAAAUAUGUAAUAAUAUUGAUUCAGUAUUGUGACAGGGUGCAGUUUAAGACAGUGGGAUACAAGAUAAUUUA,0.25 ratio
UUGCAGGUUUUAAAGGGUGAUAUUAGACCUGCUAUUGAAACUCACGAAAUGUUAUACCAGGUGAUUAAAAAACACAAUUUUCUACCAGAGGCAUUUACUACAGAUUUCAGGGUCCAUUGG,0.296 ratio
CGGCUAUUUGGUGAAGUCACCAGGCCUACUAAUUCCAAGUCUAUGAAAGUGGUGAAACUGUUUAGUGAACUGCCCUUGGCCAAGAAGAAGGAGACUUAUGAUUGGUAUCCAAAUCACCAC,0.131 ratio
AGCCGCAGCCUCUAUUCCUCAUCCCCCGGUGGCGCCUAUGUGACCCGGUCCUCGGCAGUGCGCCUGCGGAGCAGCGUGCCGGGCGUGCGGCUGCUUCAAGACUCGGUGGACUUCUCGCUG,0.118 ratio
UUAAGGGAAAUUUUUGAGGCAAAAGGCAAAUGUUUUGGUUCAAACCUAUGAGCAAAGUCAUUUAGAGAAUUGAAGAUAGUAUUAAAACCUUGAGACUCUUGCAAUAAAAAUAUCAGACCA,4.09 ratio
AUUGUCCGAGUGUCCCCAGUUAAACGAUUGGACCCAAUAAAUCUGACUGAUCGAGGCUCUGUGACCAAGAUUUAUGGGAGAGCUUUUGUUGCCGGUGUUUUGCCACUAAAAGUAGCAAAA,0.139 ratio
UUCCCCCACUGGGAAUGCUGGCUGGGAGAGCCAUGACUACCAGACUUUUCCUCAGGCUCCUUGGCAUGUUAGUCUGAAUUGUUCUUGAGCACUGUACUACUGACCCAACAACUGUGACUA,0.178 ratio
AGUCUCAGGUUGUGUGCCCCUAAAUCAAGAUUUGCUUCCACAGAAGCCAUUACUUGCAAUUUUUUUUUUUUUUCUGAGAAAGUCUCGCUGUGUCACCCAGGCUGGAGUGCAGUGGCGCAA,0.685 ratio
GCAGUCUUGUACUGUGACCUAAGAACAAAACUGUAACUGCAUUAGAAACCAUGAAAAAAUUAGAUAUUGUUUUGUGACUUUUAGACAGUGGUAAAUAUAGAACCAUGAAUUCUGGUCACA,316 ratio
GGGGUGGACCUCUUUCUUAAUGUCCAGUGUCCUAUGUCAUAAGAUUCGGUGCAAUAAGUAUUUAGACCAGCAAUAAAUACUCAGCUUGGAGAUCAUCAUGAUCUUUGUGGGUAGCAUAUC,0.538 ratio

# Block 2 — method: DHFR PCA, deep sequencing; medium: yeast; with: (+)-ABA 58 µM; baseline: wild-type fitted maximum; direction: higher = stronger binding
# Target: ABI1, truncated, D143A, DHFR fusion (Arabidopsis thaliana)
# Notes: methotrexate growth selection, single substitutions
# Parent: PYL1, truncated, DHFR fusion (Arabidopsis thaliana); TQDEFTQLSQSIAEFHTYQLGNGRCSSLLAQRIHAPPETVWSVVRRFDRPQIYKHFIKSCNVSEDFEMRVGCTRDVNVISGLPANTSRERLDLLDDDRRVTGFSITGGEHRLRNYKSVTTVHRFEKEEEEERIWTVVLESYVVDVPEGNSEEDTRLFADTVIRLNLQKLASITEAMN; partner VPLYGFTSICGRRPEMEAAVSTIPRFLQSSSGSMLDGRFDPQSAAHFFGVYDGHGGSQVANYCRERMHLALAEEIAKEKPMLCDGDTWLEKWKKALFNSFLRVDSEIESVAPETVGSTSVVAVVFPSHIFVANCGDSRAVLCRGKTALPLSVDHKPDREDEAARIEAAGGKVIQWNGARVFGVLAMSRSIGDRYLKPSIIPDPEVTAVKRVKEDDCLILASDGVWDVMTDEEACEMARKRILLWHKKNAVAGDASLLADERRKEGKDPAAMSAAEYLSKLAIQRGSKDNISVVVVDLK
Variant,relative binding score [%]
R155A,52.6
S63L,72.9
V100H,35.2
N77T,92.5
I105C,67.4
H16S,-9.62
L138S,12.3
K54H,-1.77
S87V,20.8
I133M,90.7
Y115H,13.6
E64Q,88.4
K54N,12.2
E128T,101
L8W,85.3
R155F,6.25
V44Y,-14
I33Y,-12.5
I172V,86.2
V118T,96.3
W41M,-17.9
Q7W,95.9
Q167W,57.7

# Block 3 — target: CREBL2, bZIP domain (human); method: DHFR protein complementation; medium: yeast; baseline: wild-type JUN-FOS pair; direction: higher = stronger binding
# Notes: single substitutions, most at no-binding floor
# Parent: JUN, bZIP domain (human); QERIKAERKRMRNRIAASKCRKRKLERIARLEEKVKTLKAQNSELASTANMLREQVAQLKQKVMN; partner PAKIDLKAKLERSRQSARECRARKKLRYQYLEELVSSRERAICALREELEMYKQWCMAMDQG
Variant,binding fitness [natural log]
S43W,-1.36
K36G,-1.41
V56P,-1.49
E54H,-1.5
L38E,-1.54
A49S,-1.47
R53P,-1.2
I28M,-1.46
Q41I,-1.58
E32D,-1.15
L45F,-1.43
Q41T,-1.33
A46V,-1.41
A46R,-1.38
T48V,-1.58
I28H,-1.48
S47A,-1.46
L52Q,-1.57
R53W,-1.42
S43L,-1.49
E44M,-1.4
K34C,-0.925
R30V,-1.47
I28N,-1.53
T48E,-1.53

# Block 4 — target: CCNE2, cyclin fold, Cln2 fusion (human); method: yeast growth competition, sequencing; medium: yeast; notes: weak parent motif; baseline: not given; direction: higher = stronger binding
# Parent: SAMHD1 docking peptide (human); ASKSRVQLFKDDP; partner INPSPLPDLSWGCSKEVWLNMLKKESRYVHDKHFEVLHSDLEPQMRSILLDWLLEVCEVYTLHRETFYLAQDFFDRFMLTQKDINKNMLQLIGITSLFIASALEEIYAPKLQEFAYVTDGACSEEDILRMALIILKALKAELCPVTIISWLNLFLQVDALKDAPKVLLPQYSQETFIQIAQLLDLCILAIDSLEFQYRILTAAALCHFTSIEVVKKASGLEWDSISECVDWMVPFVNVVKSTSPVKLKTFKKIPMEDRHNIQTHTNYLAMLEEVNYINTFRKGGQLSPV
Variant,normalised enrichment score
V6K,0.448
S4R,0.382
L8K,0.4
L8E,-0.0926
S2H,0.305
K10Y,-0.318
K10S,0.699
K10C,0.175
R5A,-0.00718
S4L,0.191
Q7I,0.0591
V6A,0.21
D12C,0.254
Q7R,0.768
D12M,0.0388
D12F,0.125
V6G,0.0872
D12H,0.599
K10M,0.288
S2E,0.259
K3A,0.243
S2Q,0.00255
V6N,0.0363
S4W,0.304
R5Q,-0.171

# Block 5 — method: protein-binding microarray; form: double-stranded DNA, one strand shown; medium: in vitro; tested at: 250 nM; notes: 60-bp whole probe; with: salmon DNA 0.4 mg/ml; baseline: random background probes; direction: higher = stronger binding; shared flanks, not repeated: GCCTAGCAC … GTCTTGATTCGCTTGACGCTGCTG
# Target: Interferon regulatory factor 5, full length, phosphomimetic (IRF5, Homo sapiens, UniProt Q13568-2, residues 1-514, K96S/S451D/S453D/S456D/S462D)
Strand,log fluorescence
TTGGATTTCAGTTTCGATTAGTGCTAG,10.2 z-score
TTAAATATCAGTCTCGATTAGTGCTAG,2.49 z-score
TTAGGTTTCCTTACCCTTTAGTGCTAG,0.763 z-score
GACGGTATCGACTATCGGGACGTGCTA,3.71 z-score
TTAGATTTCAGTTCCGATGAGTGCTAG,2.38 z-score
TTACGTTTCCTTCTCCTTTAGTGCTAG,2.08 z-score
GACGGTATCGGTAGCGGGACGTGCTAG,3.97 z-score
TTAGACCTGAGACTGGATTAGTGCTAG,-0.469 z-score
GACGGTTTCGGTCTTGGGACGTGCTAG,9.43 z-score
GACATCCCCAGTCTCATATTGTGCTAG,-0.385 z-score
TTAGAACTGGGGTTTCGATTAGTGCTA,5.81 z-score
GACGGCATCGGTCTCGGGACGTGCTAG,-0.0539 z-score
TCAGTTATAATATTATTACTGTGCTAG,0.816 z-score
CTTTATTTAAGCTCCTATCTTGTGCTA,0.593 z-score
TTAGCTATCGGGTTTCGGTTAGTGCTA,9.16 z-score
GACGGTTTCGGACTGGGGGCGTGCTAG,4.81 z-score
TCATATATATGTGTATAACTGTGCTAG,0.612 z-score
GACGAGTTCAGTATCGAGACGTGCTAG,2.37 z-score
TCAACTCTAATCTCACTCACTGTGCTA,0.31 z-score
GACGCTTTCAGTATCGAGACGTGCTAG,5.97 z-score
TTAGTTCTCGGTTTCGGTTAGTGCTAG,9.22 z-score
TTAGGACTGGGTTTTCGGTTAGTGCTA,4.5 z-score
TTAGGTATCGACTTTCGGTGAGTGCTA,8.93 z-score
GACGGTATCCGTCTCCTGACGTGCTAG,-0.102 z-score
TAGGGACTCGGGTCTCCCTTGGTGCTA,-1.01 z-score

# Excerpt of the above (block 5):
Strand,log fluorescence
TTAAATATCAGTCTCGATTAGTGCTAG,2.49 z-score
TTAGGTTTCCTTACCCTTTAGTGCTAG,0.763 z-score
GACGGTATCGACTATCGGGACGTGCTA,3.71 z-score
TTAGATTTCAGTTCCGATGAGTGCTAG,2.38 z-score
TTACGTTTCCTTCTCCTTTAGTGCTAG,2.08 z-score
GACGGTATCGGTAGCGGGACGTGCTAG,3.97 z-score
TTAGACCTGAGACTGGATTAGTGCTAG,-0.469 z-score
